Measured values collected from several papers.
Parts stem from different laboratories: compare values within a part only. “And” joins repeats or separate records; there may be more than shown.
Chain of UniProt P35626 (whole entry, looked up): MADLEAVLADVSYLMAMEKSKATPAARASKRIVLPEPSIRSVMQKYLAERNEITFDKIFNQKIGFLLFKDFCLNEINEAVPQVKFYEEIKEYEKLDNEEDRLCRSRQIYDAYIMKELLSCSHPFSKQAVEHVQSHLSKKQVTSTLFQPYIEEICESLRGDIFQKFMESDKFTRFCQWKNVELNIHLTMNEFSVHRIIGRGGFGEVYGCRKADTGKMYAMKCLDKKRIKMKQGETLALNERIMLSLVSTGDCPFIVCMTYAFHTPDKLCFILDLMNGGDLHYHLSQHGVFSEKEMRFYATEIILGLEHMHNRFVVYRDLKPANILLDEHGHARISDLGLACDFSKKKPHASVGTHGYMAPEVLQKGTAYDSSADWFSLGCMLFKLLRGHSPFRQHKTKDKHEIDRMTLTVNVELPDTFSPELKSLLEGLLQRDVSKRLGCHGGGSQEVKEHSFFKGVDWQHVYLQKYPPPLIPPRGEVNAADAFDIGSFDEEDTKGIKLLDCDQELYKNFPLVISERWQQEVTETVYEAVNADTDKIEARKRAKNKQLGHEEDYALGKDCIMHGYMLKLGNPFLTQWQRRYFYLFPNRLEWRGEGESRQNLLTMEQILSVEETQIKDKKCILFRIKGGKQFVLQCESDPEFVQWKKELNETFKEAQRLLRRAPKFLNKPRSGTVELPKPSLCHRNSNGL
Chain of UniProt Q13976 (whole entry, looked up): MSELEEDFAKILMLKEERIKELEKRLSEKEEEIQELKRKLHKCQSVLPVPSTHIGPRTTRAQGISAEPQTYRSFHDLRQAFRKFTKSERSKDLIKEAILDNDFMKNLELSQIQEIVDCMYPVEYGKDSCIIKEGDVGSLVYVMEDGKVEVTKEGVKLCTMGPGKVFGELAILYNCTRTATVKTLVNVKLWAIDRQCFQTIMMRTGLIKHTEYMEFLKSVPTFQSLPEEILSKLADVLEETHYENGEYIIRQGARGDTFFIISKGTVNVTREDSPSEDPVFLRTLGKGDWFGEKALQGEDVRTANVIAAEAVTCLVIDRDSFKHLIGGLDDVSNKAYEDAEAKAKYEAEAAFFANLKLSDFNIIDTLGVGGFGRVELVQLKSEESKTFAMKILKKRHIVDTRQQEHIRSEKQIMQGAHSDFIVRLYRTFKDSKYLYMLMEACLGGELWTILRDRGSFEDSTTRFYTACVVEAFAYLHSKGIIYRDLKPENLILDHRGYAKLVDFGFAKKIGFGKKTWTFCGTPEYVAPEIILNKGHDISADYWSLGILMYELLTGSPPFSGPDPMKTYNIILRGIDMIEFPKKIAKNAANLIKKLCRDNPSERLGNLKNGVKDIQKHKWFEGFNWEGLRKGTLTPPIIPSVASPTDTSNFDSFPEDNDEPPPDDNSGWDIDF
Chain of UniProt P53355 (whole entry, looked up): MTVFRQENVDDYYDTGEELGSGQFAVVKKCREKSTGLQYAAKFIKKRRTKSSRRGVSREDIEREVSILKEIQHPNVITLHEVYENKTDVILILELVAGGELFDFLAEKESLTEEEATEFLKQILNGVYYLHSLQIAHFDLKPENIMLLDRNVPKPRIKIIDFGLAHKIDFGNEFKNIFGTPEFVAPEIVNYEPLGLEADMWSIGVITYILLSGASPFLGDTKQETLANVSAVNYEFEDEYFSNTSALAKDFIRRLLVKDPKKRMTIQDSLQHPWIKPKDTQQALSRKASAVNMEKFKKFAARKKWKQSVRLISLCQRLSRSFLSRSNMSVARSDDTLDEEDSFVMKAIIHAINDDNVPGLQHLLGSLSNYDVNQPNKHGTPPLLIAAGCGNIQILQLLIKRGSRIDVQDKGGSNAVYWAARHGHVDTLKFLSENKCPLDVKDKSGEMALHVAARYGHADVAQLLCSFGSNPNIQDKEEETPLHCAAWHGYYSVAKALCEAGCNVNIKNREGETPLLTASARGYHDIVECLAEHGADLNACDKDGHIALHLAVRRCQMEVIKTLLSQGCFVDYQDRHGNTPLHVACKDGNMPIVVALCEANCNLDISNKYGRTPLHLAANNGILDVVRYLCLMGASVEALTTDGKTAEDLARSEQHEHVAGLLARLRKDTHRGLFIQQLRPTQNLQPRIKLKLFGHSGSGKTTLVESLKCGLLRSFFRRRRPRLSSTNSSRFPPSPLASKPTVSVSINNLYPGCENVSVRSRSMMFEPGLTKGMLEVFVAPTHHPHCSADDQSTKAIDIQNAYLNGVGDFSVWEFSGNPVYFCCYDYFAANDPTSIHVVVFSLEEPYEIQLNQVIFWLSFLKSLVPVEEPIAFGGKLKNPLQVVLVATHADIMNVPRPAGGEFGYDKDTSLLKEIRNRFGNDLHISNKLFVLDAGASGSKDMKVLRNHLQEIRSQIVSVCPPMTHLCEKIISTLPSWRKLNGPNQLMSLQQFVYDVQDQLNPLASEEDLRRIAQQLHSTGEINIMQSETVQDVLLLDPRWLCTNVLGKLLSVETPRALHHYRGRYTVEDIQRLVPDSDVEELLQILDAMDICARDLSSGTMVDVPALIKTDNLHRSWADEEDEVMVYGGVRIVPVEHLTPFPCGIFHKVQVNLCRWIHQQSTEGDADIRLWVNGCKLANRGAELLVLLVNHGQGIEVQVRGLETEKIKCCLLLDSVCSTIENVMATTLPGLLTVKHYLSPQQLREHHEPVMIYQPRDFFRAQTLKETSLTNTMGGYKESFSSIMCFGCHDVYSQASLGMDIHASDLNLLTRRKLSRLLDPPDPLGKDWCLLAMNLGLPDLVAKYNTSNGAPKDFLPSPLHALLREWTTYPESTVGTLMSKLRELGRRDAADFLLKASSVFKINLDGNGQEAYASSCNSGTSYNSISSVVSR
Chain of UniProt O14920 (whole entry, looked up): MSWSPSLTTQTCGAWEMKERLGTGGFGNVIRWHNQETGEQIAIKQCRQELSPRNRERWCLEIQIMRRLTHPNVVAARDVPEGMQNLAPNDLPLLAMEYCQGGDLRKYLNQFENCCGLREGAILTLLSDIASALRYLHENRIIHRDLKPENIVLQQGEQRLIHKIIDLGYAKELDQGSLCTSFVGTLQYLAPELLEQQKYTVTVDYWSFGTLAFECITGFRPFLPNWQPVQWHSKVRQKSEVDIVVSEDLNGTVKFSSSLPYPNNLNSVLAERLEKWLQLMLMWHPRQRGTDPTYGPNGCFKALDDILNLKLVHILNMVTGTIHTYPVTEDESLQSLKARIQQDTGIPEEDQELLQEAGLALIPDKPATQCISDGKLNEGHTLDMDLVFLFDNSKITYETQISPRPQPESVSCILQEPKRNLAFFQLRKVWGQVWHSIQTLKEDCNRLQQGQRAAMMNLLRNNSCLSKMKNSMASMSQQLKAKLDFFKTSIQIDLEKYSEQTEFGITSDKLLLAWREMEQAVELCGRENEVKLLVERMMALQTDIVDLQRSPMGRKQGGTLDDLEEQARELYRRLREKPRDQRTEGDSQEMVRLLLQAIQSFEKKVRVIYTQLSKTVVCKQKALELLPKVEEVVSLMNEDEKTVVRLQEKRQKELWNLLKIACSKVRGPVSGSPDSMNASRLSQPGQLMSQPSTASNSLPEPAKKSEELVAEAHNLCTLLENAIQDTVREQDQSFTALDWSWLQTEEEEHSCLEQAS
Chain of UniProt P11802 (whole entry, looked up): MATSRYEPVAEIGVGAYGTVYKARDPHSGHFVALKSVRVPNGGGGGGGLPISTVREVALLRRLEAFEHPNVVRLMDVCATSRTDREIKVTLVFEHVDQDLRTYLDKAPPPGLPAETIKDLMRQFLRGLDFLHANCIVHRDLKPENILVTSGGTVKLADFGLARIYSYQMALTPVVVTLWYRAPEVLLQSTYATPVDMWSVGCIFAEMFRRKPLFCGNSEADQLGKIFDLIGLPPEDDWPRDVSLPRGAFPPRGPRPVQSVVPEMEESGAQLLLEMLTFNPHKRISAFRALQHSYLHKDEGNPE
Chain of UniProt O94804 (whole entry, looked up): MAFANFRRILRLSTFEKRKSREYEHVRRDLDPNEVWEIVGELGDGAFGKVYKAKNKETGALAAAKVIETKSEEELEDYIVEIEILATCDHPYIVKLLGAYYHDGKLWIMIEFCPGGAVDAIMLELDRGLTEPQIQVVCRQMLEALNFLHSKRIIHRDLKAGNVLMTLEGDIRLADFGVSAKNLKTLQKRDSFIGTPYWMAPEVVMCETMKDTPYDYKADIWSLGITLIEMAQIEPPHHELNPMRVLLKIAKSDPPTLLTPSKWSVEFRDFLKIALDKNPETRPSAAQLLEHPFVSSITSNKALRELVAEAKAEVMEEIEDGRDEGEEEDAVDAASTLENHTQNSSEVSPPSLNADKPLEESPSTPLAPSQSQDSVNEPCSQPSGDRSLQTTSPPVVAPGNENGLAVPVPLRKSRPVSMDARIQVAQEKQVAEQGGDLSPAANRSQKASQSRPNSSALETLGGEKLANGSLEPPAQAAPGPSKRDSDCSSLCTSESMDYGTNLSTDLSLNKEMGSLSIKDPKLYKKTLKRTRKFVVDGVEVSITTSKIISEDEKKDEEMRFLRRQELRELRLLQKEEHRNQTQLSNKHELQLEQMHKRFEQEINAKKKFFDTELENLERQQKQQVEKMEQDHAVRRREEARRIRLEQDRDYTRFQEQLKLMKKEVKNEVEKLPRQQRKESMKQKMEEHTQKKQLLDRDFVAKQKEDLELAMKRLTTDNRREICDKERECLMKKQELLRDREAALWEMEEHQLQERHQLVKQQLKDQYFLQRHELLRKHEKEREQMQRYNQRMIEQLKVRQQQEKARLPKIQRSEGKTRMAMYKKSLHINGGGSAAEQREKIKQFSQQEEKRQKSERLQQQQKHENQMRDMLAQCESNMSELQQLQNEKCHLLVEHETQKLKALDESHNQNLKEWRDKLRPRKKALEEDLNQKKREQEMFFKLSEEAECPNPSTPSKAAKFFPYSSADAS

Set 1
Compound: c1ccc(Oc2ccc(Nc3c4c(nc5ccccc35)CCC4)cc2)cc1
Organism: Leishmania donovani
Read-out: parasite growth
| strain | sample | concentration | notes | inhibition |
| --- | --- | --- | --- | --- |
| DD8 amphotericin B-resistant | intracellular amastigotes | 80 µM | – | 99% and 102% and 100% and 101% |
| DD8 amphotericin B-resistant | promastigotes | 3.33 µM | – | 51% and 63% and 54% and 66% and 56% |
| – | – | 20 µM | intracellular, amastigote | 89% |
| DD8 amphotericin B-resistant | intracellular amastigotes | 0.004 µM | – | -1% and 1% and 5% and 2% |
| DD8 amphotericin B-resistant | intracellular amastigotes | 4 µM | – | 91% and 96% and 99% and 86% and 98% |

Set 2
Cell line: HaCaT
Concentration: 100 µM
Time: 36 h
| SMILES | viability [%] |
| --- | --- |
| CN1CCc2cc3c(cc2[C@H]1[C@@H]1OC(=O)c2c1ccc1c2OCO1)OCO3 | 92 |
| CCCC[N+]1(C)[C@@H]2C[C@@H](OC(=O)[C@H](CO)c3ccccc3)C[C@H]1[C@@H]1O[C@@H]12 (some centres unmarked) | 96.5 |
| CCCCC(C#N)(Cn1cncn1)c1ccc(Cl)cc1 (centres unmarked) | 77.6 |
| Cc1cccc(C)c1N=C1NCCCS1 | 83.2 |
| C[C@@H]1O[C@@H](O[C@H]2C[C@@H](O)[C@]3(CO)[C@H]4[C@H](O)C[C@]5(C)[C@@H](C6=CC(=O)OC6)CC[C@]5(O)[C@@H]4CC[C@]3(O)C2)[C@H](O)[C@H](O)[C@H]1O | 6.35 |
| CC(C)=CCOc1c2occc2cc2ccc(=O)oc12 | 24.5 |
| CCO[C@H]1O[C@@H]2O[C@@]3(C)CC[C@H]4[C@H](C)CC[C@@H]([C@H]1C)[C@@]24OO3 | 43.5 |
| C[C@]12CC[C@H]3[C@@H](CC[C@@]45O[C@@H]4C(O)=C(C#N)C[C@]35C)[C@@H]1CC[C@@H]2O | 97 |

Set 3
Cell line: HEK-293T-ACE2-TMPRSS2
Method: cell count
Concentration: concentration not given
| SMILES | viability [%] |
| --- | --- |
| CSc1cccc(NC(=O)C(=O)c2cccn2Cc2ccc(C)c(C)c2)c1 | 66 |
| Cc1nc(C)c(C(=O)NC(C)c2cnn(-c3ccccc3C)c2C)s1 (centres unmarked) | 67 |
| CCn1cc(CNC(=O)c2ccc3oc(-c4ccc(C(F)(F)F)cc4)nc3c2)cn1 | 78 |
| O=C(NC1CCN(Cc2ccccc2)CC1)c1cccc(Nc2cc(-c3ccc(F)cc3)ncn2)c1 | 72 |
| C/C=C/Cn1c(=O)c2c(nc3n(CCCC)c(C)cn23)n(C)c1=O | 100 |
| CC1=CC(C)(C)Nc2ccc(OC(=O)COc3ccccc3Cl)cc21 | 73 |
| O=C(O)c1cc2ccc(O)cc2oc1=O | 101 |
| CCCCOC(=O)C1=C(N)OC2=C(C(=O)CC(C)(C)C2)C12C(=O)Nc1ccc(Br)cc12 (centres unmarked) | 94 |
| O=C(CN1CC(=O)Oc2ccccc21)Nc1cc(C(F)(F)F)ccc1N1CCCCC1 | 67 |
| COc1ccc(-c2noc(N3CCC(C(=O)NCC4CCN(Cc5ccc(C)cc5)C4)CC3)n2)cc1 (centres unmarked) | 68 |
| COC(=O)c1cc(/C=C/C(=O)O)oc1C | 101 |
| CC(=O)N1CCCSc2ccc(S(=O)(=O)N3CCC(CN4CCc5ccccc5C4)CC3)cc21 | 76 |
| Cc1ccc(C2NC(=O)N(CC(=O)NC3CCCCC3)C3=C2C(=O)OC3)cc1 (centres unmarked) | 76 |
| Cc1nc(-c2cccc(Cl)c2)n(CC(=O)NCc2cccs2)c(=O)c1CCO | 84 |
| O=C1CN(C(=O)COc2ccc(C3SCCCS3)cc2)CCN1 | 100 |
| Cc1cc(NC(=O)C2CCN(c3ncnc4onc(C)c34)CC2)no1 | 70 |

Set 4
Compound: O=C1NC(=O)c2c1c1c3ccccc3n3c1c1c2c2ccccc2n1[C@H]1CC[C@@H]3O1
Read-out: enzyme activity
Mode: inhibitor
Concentration: 0.5 µM
Reference: control
| target | remaining activity |
| --- | --- |
| Serine/threonine-protein kinase 10 (STK10, Homo sapiens, UniProt O94804) | 9.25% |
| Death-associated protein kinase 2 (DAPK2, Homo sapiens, UniProt Q9UIK4) | 39.4% |
| G protein-coupled receptor kinase 3 (GRK3, Homo sapiens, UniProt P35626) | 101% |
| cGMP-dependent protein kinase 1, isoform beta (PRKG1, Homo sapiens, UniProt Q13976) | 41.3% |
| Mitogen-activated protein kinase 9 (MAPK9, Homo sapiens, UniProt P45984) | 96.1% |
| Inhibitor of nuclear factor kappa-B kinase subunit beta (IKBKB, Homo sapiens, UniProt O14920) | 97.8% |
| Death-associated protein kinase 1 (DAPK1, Homo sapiens, UniProt P53355) | 32.7% |
| Cyclin-dependent kinase 4, with cyclin D1 (CDK4, Homo sapiens, UniProt P11802) | 11.2% |
| STE20/SPS1-related proline-alanine-rich protein kinase (STK39, Homo sapiens, UniProt Q9UEW8) | 88.3% |
| Calcium/calmodulin-dependent protein kinase type II subunit delta (CAMK2D, Homo sapiens, UniProt Q13557) | 7.03% |
| Cyclin-dependent kinase 5, with p25 (CDK5, Homo sapiens, UniProt Q00535) | 28% |
| Tyrosine-protein kinase Lyn, isoform B (LYN, Homo sapiens, UniProt P07948) | 73.6% |

A few entries again (set 4):
| target | remaining activity |
| --- | --- |
| Death-associated protein kinase 2 (DAPK2, Homo sapiens, UniProt Q9UIK4) | 39.4% |
| G protein-coupled receptor kinase 3 (GRK3, Homo sapiens, UniProt P35626) | 101% |
| cGMP-dependent protein kinase 1, isoform beta (PRKG1, Homo sapiens, UniProt Q13976) | 41.3% |
| Mitogen-activated protein kinase 9 (MAPK9, Homo sapiens, UniProt P45984) | 96.1% |
| Inhibitor of nuclear factor kappa-B kinase subunit beta (IKBKB, Homo sapiens, UniProt O14920) | 97.8% |
